Earlier results as cited in several papers.
Lines come from different studies, so protocols differ.
Chain of UniProt P18031 (whole entry, looked up): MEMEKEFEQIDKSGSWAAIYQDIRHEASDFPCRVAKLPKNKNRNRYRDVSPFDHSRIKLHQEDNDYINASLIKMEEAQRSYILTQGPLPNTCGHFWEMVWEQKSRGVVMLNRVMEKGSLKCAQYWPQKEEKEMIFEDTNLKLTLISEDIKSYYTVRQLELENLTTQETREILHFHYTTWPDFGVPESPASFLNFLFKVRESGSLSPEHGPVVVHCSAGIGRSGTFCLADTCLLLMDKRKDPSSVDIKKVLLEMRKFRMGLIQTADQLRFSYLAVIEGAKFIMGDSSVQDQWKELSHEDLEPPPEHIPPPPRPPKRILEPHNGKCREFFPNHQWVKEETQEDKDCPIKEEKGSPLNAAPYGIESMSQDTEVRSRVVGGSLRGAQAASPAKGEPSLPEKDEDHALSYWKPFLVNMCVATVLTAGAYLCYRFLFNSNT

OCCN1CCN(CCC=C2c3ccccc3Sc3ccc(C(F)(F)F)cc32)CC1
log2 fold change (MCF7; microarray, refers to: TBC1D17 mRNA; concentration not given; baseline: DMSO): 0.98

CCOC(=O)[C@@H]1CSCC(=O)N[C@@H](CC)C(=O)N(C)[C@@H](C)C(=O)N[C@@H](CC(C)C)C(=O)N(C)[C@H](C)C(=O)N(CC(C)C)CC(=O)N[C@H](CC(C)C)C(=O)N(C)[C@H](C)C(=O)N[C@@H](CC(C)C)C(=O)N1C
log permeability (Pe) (MDCK): -6.03

CN(C)CCc1c[nH]cn1
selectivity ratio (histamine H3 receptor; baseline: Ki H4 over Ki H3): 178 fold

CC(C)=CCCC1=CC(=O)c2c(O)ccc(O)c2C1=O
Ki (Chitinase (OfChi-h, Ostrinia furnacalis, UniProt Q4AE59)): 5.5 µM

CNCc1ccc(-c2cc(-c3nc(-c4ccc(S(=O)(=O)C(C)C)cc4)cnc3N)on2)cc1
maximum tolerated dose (human; iv): 240 mg/m² twice weekly

CCCSc1ccc2nc(NC(=O)OC)[nH]c2c1
IC50 (Trichuris muris; adult worms): 200 µg/mL

C[C@@H]1COCCN1c1cc(C2([S@](C)(=N)=O)CC2)nc(-c2cc[nH]c3nccc2-3)n1
maximum tolerated dose (human): 160 mg twice daily

C=C(C)[C@@H]1CC[C@@H](C)[C@@H]2CCC(C)=C[C@@H]21
IC50 (PTPN1 (Homo sapiens, UniProt P18031); enzyme activity, inhibitor): ~50 µM

Excerpt of the above:
C[C@@H]1COCCN1c1cc(C2([S@](C)(=N)=O)CC2)nc(-c2cc[nH]c3nccc2-3)n1
maximum tolerated dose (human): 160 mg twice daily
